Published values collected from several papers.
Values joined by “and” are separate records of one study, mostly repeats; a detail may differ. Numbers after ± are the reported error.
Chain of UniProt P20813 (whole entry, looked up): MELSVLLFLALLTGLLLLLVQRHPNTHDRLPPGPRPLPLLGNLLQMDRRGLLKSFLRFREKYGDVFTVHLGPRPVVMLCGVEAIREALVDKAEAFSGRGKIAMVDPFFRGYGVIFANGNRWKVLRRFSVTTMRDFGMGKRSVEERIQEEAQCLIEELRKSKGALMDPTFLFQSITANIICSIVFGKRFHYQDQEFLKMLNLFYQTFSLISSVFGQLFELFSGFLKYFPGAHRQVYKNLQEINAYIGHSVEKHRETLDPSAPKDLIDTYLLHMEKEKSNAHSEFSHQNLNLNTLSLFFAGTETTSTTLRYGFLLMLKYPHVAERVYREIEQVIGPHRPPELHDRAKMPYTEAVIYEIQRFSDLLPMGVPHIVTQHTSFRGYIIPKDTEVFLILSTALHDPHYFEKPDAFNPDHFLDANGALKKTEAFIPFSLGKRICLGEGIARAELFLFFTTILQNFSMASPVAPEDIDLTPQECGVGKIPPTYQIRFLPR
Chain of UniProt P48730 (whole entry, looked up): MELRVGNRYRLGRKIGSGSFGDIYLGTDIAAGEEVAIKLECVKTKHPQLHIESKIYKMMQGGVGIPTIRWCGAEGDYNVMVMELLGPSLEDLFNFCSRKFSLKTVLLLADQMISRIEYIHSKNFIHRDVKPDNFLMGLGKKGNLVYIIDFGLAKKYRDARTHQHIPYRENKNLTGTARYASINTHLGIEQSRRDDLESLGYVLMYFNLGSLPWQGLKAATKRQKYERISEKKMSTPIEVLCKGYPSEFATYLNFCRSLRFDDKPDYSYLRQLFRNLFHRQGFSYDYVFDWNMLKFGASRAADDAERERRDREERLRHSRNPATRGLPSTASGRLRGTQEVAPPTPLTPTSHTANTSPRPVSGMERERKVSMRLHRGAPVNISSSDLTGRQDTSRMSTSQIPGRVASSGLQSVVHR

| Compound | target or system | test | test system | conditions | scale | measurement | value |
| --- | --- | --- | --- | --- | --- | --- | --- |
| Cc1ncsc1-c1ccc(C(C)NC(=O)C2CC(O)CN2C(=O)C(NC(=O)CCCCCCCCCCN2CCCC(Nc3ncc(Cl)c(Nc4ccccc4S(=O)(=O)C(C)C)n3)C2)C(C)(C)C)cc1 (stereo not drawn) | 22Rv1 | RNA-seq, measured: ZNF189 mRNA | – | concentration not given | reference: DMSO | log2 fold change | -1.14 |
| CC(C)C[C@H](NC(=O)[C@@H](CCCCNC(=O)[C@@H](Cc1ccccc1)NC(=O)CCCCCNC(=O)CN1CCN(CC(=O)O)CCN(CC(=O)O)CCN(CC(=O)O)CC1)NC(=O)[C@H](Cc1ccc(O)cc1)NC(=O)[C@H](CO)NC(=O)[C@H](Cc1c[nH]c2ccccc12)NC(=O)[C@H](Cc1c[nH]cn1)NC(=O)[C@@H]1CCC(=O)N1)C(=O)N[C@@H](CCCNC(=N)N)C(=O)N1CCC[C@H]1C(=O)NCC(N)=O [indium-111 labelled] | – | – | female athymic nude mice, tumor | intravenous, 0.037 MBq, 2 h | – | tissue uptake | 0.2 ± 0.04 %ID/g |
| C=C(NC(=O)c1csc(-c2nc3c(cc2O)-c2nc(cs2)C(=O)NC(C(C)O)C(=O)NC(=C(C)OC)c2nc(cs2)C(=O)NC2c4nc(cs4)C(=O)NC(COC(=O)c4c5c6c(cccc6n4O)COC(=O)C(OC4CC(C)(O)C(N(C)C)C(C)O4)C2OC5)c2nc-3cs2)n1)C(N)=O (stereo not drawn) | – | – | ICR mice, Streptococcus pneumoniae ATCC 49169 infected, immunocompromised, blood | intravenous, 8 mg/kg/day once daily | – | Cmax | 736 ng/mL |
| C=C1CC[C@H](OCCCNC(=O)CCOCCOCCOCCOCCOCCOCCOCCOCCOCCOCCOCCOCCOCCOCCOCCOCCOCCOCCOCCOCCOCCOCCOCCOCCOCCOCCOCCOCCOCCOCCOCCOCCOCCOCCOCCOCCNC(=O)CCN2C(=O)CC(SC[C@H](NC(=O)[C@H](Cc3ccccc3)NC(=O)[C@H](CC(N)=O)NC(=O)[C@H](Cc3c[nH]cn3)NC(=O)[C@@H](NC(=O)[C@H](CC(=O)O)NC(=O)[C@H](CCC(N)=O)NC(=O)[C@H](CC(C)C)NC(=O)[C@H](CCCCN)NC(=O)[C@H](CCCCN)NC(=O)[C@H](CCCNC(=N)N)NC(=O)[C@H](CC(C)C)NC(=O)[C@H](Cc3c[nH]c4ccccc34)NC(=O)[C@H](CCC(=O)O)NC(=O)[C@@H](NC(=O)[C@H](CCCNC(=N)N)NC(=O)[C@H](CCC(=O)O)NC(=O)[C@H](CCSC)NC(=O)[C@H](CO)NC(=O)[C@H](CC(N)=O)NC(=O)[C@H](CC(C)C)NC(=O)[C@H](Cc3c[nH]cn3)NC(=O)[C@H](CCCCN)NC(=O)CNC(=O)[C@H](CC(C)C)NC(=O)[C@H](CC(N)=O)NC(=O)[C@H](Cc3c[nH]cn3)NC(=O)[C@H](CCSC)NC(=O)[C@H](CC(C)C)NC(=O)[C@H](CCC(N)=O)NC(=O)[C@@H](NC(=O)[C@H](CCC(=O)O)NC(=O)[C@H](CO)NC(=O)[C@@H](NC(=O)[C@@H](N)CO)C(C)C)[C@@H](C)CC)C(C)C)C(C)C)C(=O)O)C2=O)C/C1=C/C=C1\CCC[C@]2(C)[C@@H]([C@H](C)CCCC(C)(C)O)CC[C@@H]12 (stereo partly drawn) | – | – | male cynomolgus monkey, plasma | subcutaneous, 0.07 mg/kg, single dose | – | Cmax | 389 ng/mL |
| c1ccc(CC(c2c[nH]c3ccccc23)c2c[nH]c3ccccc23)cc1 | Bifidobacterium longum | microbial growth, absorbance | – | – | – | IC50 | 29 µM |
| Cc1nn(-c2cccc(N)c2)c(=O)c2cnc(Nc3ccc(N4CCNCC4)cc3)nc12 | CSNK1D (Homo sapiens, UniProt P48730) | SelectScreen kinase | – | – | – | IC50 | > 10 µM |
| Cc1ccc(-c2nc(N)c3c(Nc4ccc(Cl)cc4)n[nH]c3n2)cc1 | Human rhinovirus 8 | cytopathic effect, inhibitor | HeLa | – | – | IC50 | 1.14 µM |
| Nc1ccn([C@@H]2O[C@H](CO)[C@@H](O)C2(F)F)c(=O)n1 | human alphaherpesvirus 1 | – | K26 GFP, 3D adult human skin air-liquid interface | 48 h | – | IC50 | 0.11 µM |
| CCOC(=O)/C=C/[C@H](C[C@@H]1CCNC1=O)NC(=O)[C@@H](CC(=O)[C@@H](NC(=O)c1cc(C)on1)C(C)C)Cc1ccc(F)cc1 | rhinovirus C41a-mGL | viral replication, high-content imaging | – | – | – | IC50 | 0.01 µM |
| CC(C)C[C@H](NC(=O)[C@@H](CCCCNC(=O)CCCCCCCCCCNC(=O)CN1CCN(CC(=O)O)CCN(CC(=O)O)CCN(CC(=O)O)CC1)NC(=O)[C@H](Cc1ccc(O)cc1)NC(=O)[C@H](CO)NC(=O)[C@H](Cc1c[nH]c2ccccc12)NC(=O)[C@H](Cc1cnc[nH]1)NC(=O)[C@@H]1CCC(=O)N1)C(=O)N[C@@H](CCCN=C(N)N)C(=O)N1CCC[C@H]1C(=O)NCC(N)=O [indium-111 labelled] | – | – | athymic nude mouse, female, whole blood | intravenous, 0.037 MBq, 1 h | – | tissue uptake | 3.14 ± 0.77 %ID/g |
| CNCc1ccc2c(c1)C[C@H](CNC(=N)N)[C@H]2NC(=O)C(=O)Nc1ccc(Cl)c(F)c1 | HIV-1 | viral infection | TZM-bl, CRF02_AG 263-8 Env pseudovirus | – | – | IC50 | 4.29 µM |
| Nc1nc(-c2ccccc2)nc2[nH]nc(Nc3cccc(F)c3F)c12 | Human rhinovirus 8 | cytopathic effect, inhibitor | HeLa | – | – | IC50 | 122 µM |
| Nc1ncc(-c2cc(-c3cnn(CC(F)(F)F)c3)ncc2F)nc1C(=O)NC1CNCC(F)C1 (stereo not drawn) | MEK6 | KINOMEscan | – | 1 µM | reference: DMSO control | remaining binding | 83% |
| COC1CN([C@H]2CC[C@H]([C@@]3(C)Oc4c(Cl)cc(C(=O)NCc5c(SC)cc(C)[nH]c5=O)c(C)c4O3)CC2)C1 | – | RNA-seq, measured: CERS4 mouse homolog | mouse, HT-1376 xenograft, whole blood | dose not given | reference: vehicle | log2 fold change | 1.01 |
| c1ccc2c([C+](c3c[nH]c4ccccc34)c3c[nH]c4ccccc34)c[nH]c2c1 | Bifidobacterium longum | microbial growth, absorbance | – | – | – | IC50 | > 50 µM |
| COc1ccc(-c2nc(N3CCOCC3)c3sc(CN(C)c4ncc(C(=O)NO)cn4)cc3n2)cn1 | human alphaherpesvirus 1 | – | K26 GFP, 3D adult human skin submerged | 48 h | – | IC50 | 0.37 µM |
| CC(c1c[nH]c2ccccc12)c1c[nH]c2ccccc12 | Bifidobacterium longum | microbial growth, absorbance | – | – | – | IC50 | > 50 µM |

| Compound | target or system | test | test system | conditions | scale | measurement | value |
| --- | --- | --- | --- | --- | --- | --- | --- |
| COC1C=COC2(C)Oc3c(C)c(O)c4c(c3C2=O)C2=NC3(CCN(CC(C)C)CC3)NC2=C(NC(=O)C(C)=CC=CC(C)C(O)C(C)C(O)C(C)C(OC(=O)Nc2cccnn2)C1C)C4=O (stereo not drawn) | Mycobacteroides abscessus | bacterial growth | subsp. abscessus M9 clinical isolate | – | – | IC50 | 0.012 µM |
| c1ccc2c(Cc3c[nH]c4ccccc34)c[nH]c2c1 | Bifidobacterium longum | microbial growth, absorbance | – | – | – | IC50 | > 50 µM |
| CCN(CC)CC#CCNc1ccnc2cc(Cl)ccc12 | Plasmodium falciparum | – | IPC_4912 | – | – | IC50 | 0.0486 µM |
| Nc1nc(-c2ccccc2)nc2[nH]nc(Nc3ccc(F)cc3)c12 | Human rhinovirus 8 | cytopathic effect, inhibitor | HeLa | – | – | IC50 | 26.5 µM |
| CNC(=O)C1CCCN(C(=O)C2CC3CCC2N3C(=O)[C@@H]2C[C@@H](O)CN2C(=O)NCc2cccc(Cl)c2F)C1 (mixture of isomers) | Cytochrome P450 2B6 (CYP2B6, Homo sapiens, UniProt P20813) | preincubation without NADPH | human | 0.0686 µM | reference: negative control | remaining activity | 102% and 104% and 107% |
| COC1C=COC2(C)Oc3c(C)c(O)c4c(c3C2=O)C2=NC3(CCN(CC(C)C)CC3)NC2=C(NC(=O)C(C)=CC=CC(C)C(O)C(C)C(O)C(C)C(OC(=O)Nc2cscn2)C1C)C4=O (stereo not drawn) | Mycobacteroides abscessus | intracellular growth, Hill fit | THP-1 derived macrophages, ATCC 19977 | – | – | IC50 | 0.014 µM |
| Nc1nc(-c2ccccc2)nc2[nH]nc(Nc3ccc(F)c(Cl)c3)c12 | Human rhinovirus 8 | cytopathic effect, inhibitor | HeLa | – | – | IC50 | 123 µM |
| O=C(Nc1ccc([N+](=O)[O-])cc1Cl)c1cc(Cl)ccc1O | human alphaherpesvirus 1 | – | K26 GFP, 3D adult human skin submerged | 48 h | – | IC50 | 0.18 µM |
| COc1ccc(Nc2n[nH]c3nc(-c4ccccc4)nc(N)c23)c(OC)c1 | Human rhinovirus 8 | cytopathic effect, inhibitor | HeLa | – | – | IC50 | 111 µM |
| C=CC(=O)Nc1cccc(Cn2ncc3cnc(Nc4cnn(CCOC)c4)nc32)c1 | PIK3C2G human | binding, KINOMEscan | – | 100 nM | lower = stronger binding | percent of control | 72% |
| CC1(C)CC(=O)c2c(C(F)(F)F)nn(-c3ccc(C(N)=O)c(N[C@H]4CC[C@H](O)CC4)c3)c2C1 | human alphaherpesvirus 1 | – | K26 GFP, 3D adult human skin submerged | 48 h | – | IC50 | 0.09 µM |
| O=C(Nc1cnccc1-c1ccc([18F])cc1)c1ccnc(NC(=O)C2CC2)c1 | – | ex vivo biodistribution, gamma counting | GSK-3β overexpressing transgenic mouse, early stage, cecum | intravenous, 120 min post-injection, added: tariquidar 15 mg/kg iv, at least 120 min before tracer | – | mean SUV | 3.02 |
| Cc1ccc(-c2nc(N)c3c(Nc4ccc(F)cc4)n[nH]c3n2)cc1 | Human rhinovirus 8 | cytopathic effect, inhibitor | HeLa | – | – | IC50 | 1.64 µM |
| Cc1nc(N(C)C(=O)Cc2ccc(-c3ccccn3)cc2)sc1S(N)(=O)=O | human alphaherpesvirus 1 | – | K26 GFP, 3D adult human skin air-liquid interface | 48 h | – | IC50 | 0.25 µM |
| Nc1nc(-c2ccc(Cl)cc2)nc2[nH]nc(Nc3cccc(F)c3)c12 | Human rhinovirus 8 | cytopathic effect, inhibitor | HeLa | – | – | IC50 | 6.31 µM |
| O=C(/C=C\n1cnc(-c2cc(C(F)(F)F)cc(C(F)(F)F)c2)n1)NNc1ccccn1 | human alphaherpesvirus 1 | – | K26 GFP, 3D adult human skin air-liquid interface | 48 h | – | IC50 | 0.26 µM |

Excerpt of the above:
| Compound | target or system | test | test system | conditions | scale | measurement | value |
| --- | --- | --- | --- | --- | --- | --- | --- |
| CC(c1c[nH]c2ccccc12)c1c[nH]c2ccccc12 | Bifidobacterium longum | microbial growth, absorbance | – | – | – | IC50 | > 50 µM |
| COC1C=COC2(C)Oc3c(C)c(O)c4c(c3C2=O)C2=NC3(CCN(CC(C)C)CC3)NC2=C(NC(=O)C(C)=CC=CC(C)C(O)C(C)C(O)C(C)C(OC(=O)Nc2cccnn2)C1C)C4=O (stereo not drawn) | Mycobacteroides abscessus | bacterial growth | subsp. abscessus M9 clinical isolate | – | – | IC50 | 0.012 µM |
| c1ccc2c(Cc3c[nH]c4ccccc34)c[nH]c2c1 | Bifidobacterium longum | microbial growth, absorbance | – | – | – | IC50 | > 50 µM |
| CCN(CC)CC#CCNc1ccnc2cc(Cl)ccc12 | Plasmodium falciparum | – | IPC_4912 | – | – | IC50 | 0.0486 µM |
